# Experimental data gathered from unrelated publications.
# Every numbered part comes from another study and shows a few of its results, in no order. Changes are numbered by the printed parent chain.

# Set 1 — target: BATF3, bZIP domain (human); method: DHFR protein complementation; matrix: yeast; reference: wild-type JUN-FOS pair; direction: higher = stronger binding
# Setting: single substitutions, most at no-binding floor
# Starting sequence: JUN, bZIP domain (human); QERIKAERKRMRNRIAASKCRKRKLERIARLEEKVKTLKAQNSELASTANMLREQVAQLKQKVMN; partner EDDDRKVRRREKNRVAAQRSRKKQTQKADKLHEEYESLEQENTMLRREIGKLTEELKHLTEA
Change,binding fitness
K36F,0.112 natural log
N42V,-0.133 natural log
T48C,0.139 natural log
K34T,0.248 natural log
E44V,0.159 natural log
A57E,0.208 natural log
A40Q,0.25 natural log
Q41T,0.174 natural log
V56A,0.0904 natural log
K34F,0.0256 natural log
L31C,0.131 natural log
V35A,-0.00918 natural log
V35L,0.152 natural log
S43Q,0.286 natural log
Q55A,0.0962 natural log
A29D,0.296 natural log
L45E,-0.799 natural log
S43N,0.224 natural log
S47H,0.178 natural log
K39D,0.0138 natural log
V35D,-0.933 natural log
K34P,-0.269 natural log
E32W,0.0068 natural log
K39G,0.115 natural log
A40H,0.217 natural log

# Set 2 — method: protein-binding microarray; molecule type: double-stranded DNA, one strand shown; matrix: in vitro; tested at: 2200 nM top; setting: 60-bp whole probe; added: salmon DNA 0.4 mg/ml; reference: random background probes; direction: higher = stronger binding; constant ends, left off below: GCCTAGCAC … GTCTTGATTCGCTTGACGCTGCTG
# Target: Interferon regulatory factor 7, full length, phosphomimetic (IRF7, Homo sapiens, UniProt Q92985, residues 1-503, S471D/S472D/S475D/S476D/S477D/S483D/S484D/S487D)
# Sequence of UniProt Q92985 (whole entry, unmodified, looked up): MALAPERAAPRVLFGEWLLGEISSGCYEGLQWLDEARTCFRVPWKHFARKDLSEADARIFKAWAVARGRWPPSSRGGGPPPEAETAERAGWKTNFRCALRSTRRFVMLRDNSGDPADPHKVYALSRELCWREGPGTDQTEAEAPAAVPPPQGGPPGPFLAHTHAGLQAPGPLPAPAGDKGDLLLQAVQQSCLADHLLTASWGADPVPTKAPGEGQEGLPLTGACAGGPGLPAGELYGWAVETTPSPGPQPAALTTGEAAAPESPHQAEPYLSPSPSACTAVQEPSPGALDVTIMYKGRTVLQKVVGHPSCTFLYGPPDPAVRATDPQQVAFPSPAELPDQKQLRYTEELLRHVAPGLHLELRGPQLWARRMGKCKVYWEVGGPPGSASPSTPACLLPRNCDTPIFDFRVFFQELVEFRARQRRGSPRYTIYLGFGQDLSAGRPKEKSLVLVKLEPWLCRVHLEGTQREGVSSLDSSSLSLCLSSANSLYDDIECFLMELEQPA
Sequence,fitted relative affinity [z-score]
AACTAAAGAGACCACAAAAAGTGCTAG,-1.36
TTAGAACTGAGTTTCGATTGGTGCTAG,5.43
TTAGGATTCGACTTTCGGTTAGTGCTA,6.84
GACGGTCTCGGTATCGGTACGTGCTAG,0.237
TCAGTGCTCATCTGTCATACTGTGCTA,0.496
GACGGTATCGATTTCGGGACGTGCTAG,1.94
TTAAGTTTCGACTTTCGGTTAGTGCTA,12.5
ACTCTAATCTCACTCTGTCCGTGCTAG,1.43
TTAGGTTTCGGGACGGGGTTAGTGCTA,4.24
GTCGGACTGCTTTTCCTGACGTGCTAG,1.16
GACGGACTGGTTCTCGGGACGTGCTAG,-0.585
GACGGTTTCGCGTTTCGGGACGTGCTA,5.44
TTAGGACTAGACTTTCGGTTAGTGCTA,4.34
TTAGGTATCGGGTTTAGGTTAGTGCTA,0.718
TCAGCTTTCATTTATTTACTGTGCTAG,1.76
GACGAACTGGGGCATCGAGACGTGCTA,-0.17
TGAGATATCGGGTATCGATTAGTGCTA,0.0812
TTAGAACTGAGACTGGATAAGTGCTAG,-0.687
TCAAATTAGAATTTAAAACTGTGCTAG,-1.32
CAGTTTTCCTCTGTCATTTTGTGCTAG,3.64
CGCGCTTCTCGGCGGCGAAGGTGCTAG,0.538
AACCATTTTGGTTTTCCTTAGTGCTAG,2.2
GACGATATCAGTCTCGAGAGGTGCTAG,-0.137
GGCGGTCTCGGTTTCGGGACGTGCTAG,3.26
GACGATTTCGGGTTTCGAGCCGTGCTA,4.72

# Set 3 — method: RNA Bind-n-Seq; molecule type: RNA; matrix: in vitro; tested at: 1 µM; setting: whole 134-nt RNA, ends assumed; added: 150 mM KCl; reference: input library; direction: higher = stronger binding
# Target: Ras GTPase-activating protein-binding protein 1, RRM domain (G3BP1, Homo sapiens, UniProt Q13283)
# Sequence of UniProt Q13283 (whole entry, looked up): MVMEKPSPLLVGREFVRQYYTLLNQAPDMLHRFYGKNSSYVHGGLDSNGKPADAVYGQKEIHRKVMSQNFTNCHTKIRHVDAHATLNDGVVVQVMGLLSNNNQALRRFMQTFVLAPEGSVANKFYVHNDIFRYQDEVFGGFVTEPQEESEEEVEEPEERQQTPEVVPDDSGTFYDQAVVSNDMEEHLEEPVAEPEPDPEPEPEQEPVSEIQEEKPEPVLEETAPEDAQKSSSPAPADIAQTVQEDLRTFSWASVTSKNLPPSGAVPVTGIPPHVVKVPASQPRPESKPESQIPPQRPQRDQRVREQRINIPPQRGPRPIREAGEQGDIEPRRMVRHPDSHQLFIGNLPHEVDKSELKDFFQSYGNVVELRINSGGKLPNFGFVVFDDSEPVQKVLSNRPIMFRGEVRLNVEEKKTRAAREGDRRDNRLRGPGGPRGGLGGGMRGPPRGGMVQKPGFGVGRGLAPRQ
# Constant ends, left off below: GGGAGUUCUACAGUCCGACGAUC … UGGAAUUCUCGGGUGUCAAGG
Sequence,log2 enrichment
CUCAAGUCCUGUGCUACACAUCGUAUGUACCGAAUCGGGUGGGAGGGAAAGGGAAAGUAUUAUGUUACGCCGUUCGGAUCUGCACUUCCA,0.615
CAAGUCCUGUGCUACACAUCGUAUGUACCGAAUCGGGUGGGUUUGGGUUUUUGGGAAAGUAUUAUGUUACGCCGUUCGGAUCUGCACUUC,0.632
CUCAAGUCCUGUGCUACACAUCGUAUGUACCGAAUCGGAAAAAGGAGGUUUGGAAAGUAUUAUGUUACGCCGUUCGGAUCUGCACUUCCA,-0.116
AGUCCUGUGCUACACAUCGUAUGUACCGAAUCGGGUUUUUGGGUUUUUGGGUUUGGGAAAGUAUUAUGUUACGCCGUUCGGAUCUGCACU,0.285
CCUCAAGUCCUGUGCUACACAUCGUAUGUACCGAAUCGGGGAGGGAGGGAGGAAAGUAUUAUGUUACGCCGUUCGGAUCUGCACUUCCAG,0.345
AGUCCUGUGCUACACAUCGUAUGUACCGAAUCGGGAAAAAGGGGAAAAAGGAAAAAGGAAAGUAUUAUGUUACGCCGUUCGGAUCUGCAC,-0.0661
UCAAGUCCUGUGCUACACAUCGUAUGUACCGAAUCGGGGAAGGGGAAGGGGAAGGAAAGUAUUAUGUUACGCCGUUCGGAUCUGCACUUC,-0.119
UCAUCCUUUUUAAAUUUUUUUUUUUUUUUUGAGACGGUCUCACUCUCACCCAGGCUGGAUUGCAGUGGUGUGAUCUCGACCAACUGCAAC,-2.15
UCAAGUCCUGUGCUACACAUCGUAUGUACCGAAUCGGGAAAAAGGGAGGGAGGGAAAGUAUUAUGUUACGCCGUUCGGAUCUGCACUUCC,0.83
UCACUUUAGAGGAGGAUCUGAUGGAUAUGGCAGUGGACGUGGAUUUGGGGAUGGCUAUAAUGGGUAUGGAGGAGGACCUGGAGGUGGCAA,-0.761

# Set 4 — method: protein binding microarray; molecule type: double-stranded DNA, one strand shown; matrix: in vitro; tested at: not given; reference: not given; direction: higher = stronger binding
# Target: Histone acetyltransferase KAT6A, both winged helices, GST fusion (KAT6A, Homo sapiens, UniProt Q92794, residues 1-181)
# Setting: 8-mer, flanks averaged, mean of 2 arrays, mostly near background
# Target sequence (chain): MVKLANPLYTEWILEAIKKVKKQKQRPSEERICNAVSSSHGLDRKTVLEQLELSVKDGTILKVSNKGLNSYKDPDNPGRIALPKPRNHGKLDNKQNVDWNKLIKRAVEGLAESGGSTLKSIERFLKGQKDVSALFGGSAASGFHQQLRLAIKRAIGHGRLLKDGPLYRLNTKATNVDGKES
Sequence,E-score
CTGCTCCA,-0.229
ATGTATAG,-0.163
AACATAAT,0.0364
GCGAACTA,-0.0486
AGGATACT,-0.0714
GTGTTTAA,-0.00248
CGCATGGA,0.0151
ACGGCTCC,0.215
AATCGGAC,0.00934
CACGTCCG,0.0851
CGCCGGAA,0.227
GGTTGTTA,-0.00106
ACATGCGC,0.255
TAGTTATA,0.0109
CGAAGCAA,0.0299
ATCAAACA,-0.111
TTAGAAAA,-0.199
GTCGTGGA,-0.00983
ATTCTGGG,-0.196
ATAACCAA,-0.161

# For quick reference, copied from above (set 1):
Change,binding fitness
K36F,0.112 natural log
K34F,0.0256 natural log
S43N,0.224 natural log
L45E,-0.799 natural log
A40Q,0.25 natural log
Q41T,0.174 natural log
K39G,0.115 natural log
Q55A,0.0962 natural log
K34P,-0.269 natural log
A29D,0.296 natural log
N42V,-0.133 natural log
K34T,0.248 natural log
V56A,0.0904 natural log
